# Measured values pooled from the literature.
# Lines come from different studies, so protocols differ. Several values in a cell are separate wells, animals, samples, runs or records.
# Target: Serine/threonine-protein kinase Nek6 (NEK6, Homo sapiens, UniProt Q9HC98)
Structure (SMILES),test,conditions,how to read,endpoint,value
Cc1cnc2nc1Nc1cccc(c1)COC/C=C/COCc1cc(ccc1OCCN1CCOCC1)N2,binding,0.1 µM,,remaining binding,87%
CC(C)=CC1OC(C)(C)C2C=C3C(=O)C(Cl)=CC(O)C3C3C(O)C4OC4C(=O)C132 (stereo not shown),"cell-free assay, competition with immobilised ligand",10 µM,,remaining binding,87%
CNC(=O)C1CCN(c2cc(C)c(F)cc2NC(=O)c2ccc(-c3cc(O)ccc3C)c(C)c2)CC1,"binding, competition with immobilised ligand",1 µM,,remaining binding,100%
C=CC(=O)N1Cc2nc(-c3cc(-c4cc(Cl)cnc4Cl)c(F)cc3F)n(-c3ccncn3)c2C1,"cell-free assay, inhibitor",1 µM,,inhibition,7.2%
CNC(=O)C[C@H](Cc1ccc(C#N)cc1)NC(=O)c1cc(-c2ccc(CN[C@H](C)c3ccc(C)cc3)o2)ccc1Cl,"enzyme activity, inhibitor",1 µM,,activity vs control,110%
C=CC(=O)Nc1cccc(-c2cnc3[nH]cc(C(=O)NC(C)(C)C)c3n2)c1,kinase activity,0.1 µM,,inhibition,3% and 2%
C=CC(=O)N1CCc2ccc(-n3c(=O)ccc4cnc5ccc(-c6cnn(C)c6)cc5c43)cc21,KINOMEscan,1 µM,reference: DMSO control,remaining binding,82%
O=C(Cc1ccc(OCc2ccccc2)cc1)NC1(C(=O)O)CCN(C(=O)c2ccc(-c3cccc(Cl)c3)cc2)CC1,"enzyme activity, inhibitor",10 µM,,activity vs control,108%
CCn1cc(C(=O)O)c(=O)c2c(N)c(F)c(NC3CCCCC3)cc21,kinase activity,"0.1 µM, added: ATP at Km",,inhibition,-15.6%
Cc1cccc(-c2ccc3nc(NC(=O)C4CCCCC4)nn3c2)c1,"enzyme activity, Dundee kinase panel",10 µM,,remaining activity,88%
NC(=O)C[C@H]1CCc2sc3ncnc(O[C@H]4CC[C@H](N5CCOCC5)CC4)c3c21,"enzyme activity, inhibitor",10 µM,,inhibition,-11%
C=CC(=O)N1CCCC(n2c(=O)c3ncccc3n(Cc3ccc(Oc4ccccc4)cc3)c2=O)C1 (stereo not shown),"cell-free assay, competition with immobilised ligand",1 µM,,remaining binding,100%
COc1ccc(C(=O)/C=C/c2ccccc2-c2c[nH]c3ccc(C#N)cc23)c(O)c1,"enzyme activity, inhibitor",20 µM,,inhibition,4%
Cc1cccc(O[C@H]2CCC[C@@H](C(C)CNCc3ccncc3)C2)c1 (relative stereo),"enzyme activity, inhibitor",1 µM,,inhibition,2%
Cc1ccc(-c2c(/C=C(\C#N)C(=O)NC(C)C)n(CCCO)c3ncnc(N)c23)cc1,"cell-free assay, competition with immobilised ligand",1 µM,,remaining binding,82%
Cc1ccc(C)c(-c2ccc3nc(NC(=O)C4CCCCC4)nn3c2)c1,"enzyme activity, Dundee kinase panel",10 µM,,remaining activity,81%
O=C=[N][Ru-4]123([n]4c5ccc(O)cc5c5c6c(c7cc(F)c[n+]1c7c54)C(=O)NC6=O)[S+]1CC[S+]2CC[S+]3CC1 (stereo not shown),enzyme activity,"100 nM, human enzyme, added: 10 µM ATP",reference: untreated,remaining activity,94%
CN1CC[C@@H](COc2cnc(C#N)cc2-c2ccn3nc(NC(=O)C4CC4)cc3c2)C1,"enzyme activity, inhibitor",1 µM,,inhibition,-6%
COc1cc(Nc2nc(C)cc(-c3cnn4nc(OC)ccc34)n2)cc(C(F)(F)F)c1,inhibitor,1 µM,reference: control,remaining activity,89%

# For quick reference, copied from above:
Structure (SMILES),test,conditions,how to read,endpoint,value
C=CC(=O)N1CCc2ccc(-n3c(=O)ccc4cnc5ccc(-c6cnn(C)c6)cc5c43)cc21,KINOMEscan,1 µM,reference: DMSO control,remaining binding,82%
O=C(Cc1ccc(OCc2ccccc2)cc1)NC1(C(=O)O)CCN(C(=O)c2ccc(-c3cccc(Cl)c3)cc2)CC1,"enzyme activity, inhibitor",10 µM,,activity vs control,108%
